Measured values of several laboratories.
Each line is one published result; not all experiments were run side by side. ± marks the error that the study gave.
ribH: 6,7-dimethyl-8-ribityllumazine synthase (ribH, Mycobacterium tuberculosis, UniProt P9WHE9)
Chain of UniProt P9WHE9 (whole entry, looked up): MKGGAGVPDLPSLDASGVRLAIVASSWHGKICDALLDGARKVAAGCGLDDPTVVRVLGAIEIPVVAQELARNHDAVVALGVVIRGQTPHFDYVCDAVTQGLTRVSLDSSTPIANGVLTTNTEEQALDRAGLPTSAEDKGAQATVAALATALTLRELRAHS
B1: DNA ligase 1 (human, 233–919); sequence looked up; chain TPRKPAVKKEVKEEEPGAPGKEGAAEGPLDPSGYNPAKNNYHPVEDACWKPGQKVPYLAVARTFEKIEEVSARLRMVETLSNLLRSVVALSPPDLLPVLYLSLNHLGPPQQGLELGVGDGVLLKAVAQATGRQLESVRAEAAEKGDVGLVAENSRSTQRLMLPPPPLTASGVFSKFRDIARLTGSASTAKKIDIIKGLFVACRHSEARFIARSLSGRLRLGLAEQSVLAALSQAVSLTPPGQEFPPAMVDAGKGKTAEARKTWLEEQGMILKQTFCEVPDLDRIIPVLLEHGLERLPEHCKLSPGIPLKPMLAHPTRGISEVLKRFEEAAFTCEYKYDGQRAQIHALEGGEVKIFSRNQEDNTGKYPDIISRIPKIKLPSVTSFILDTEAVAWDREKKQIQPFQVLTTRKRKEVDASEIQVQVCLYAFDLIYLNGESLVREPLSRRRQLLRENFVETEGEFVFATSLDTKDIEQIAEFLEQSVKDSCEGLMVKTLDVDATYEIAKRSHNWLKLKKDYLDGVGDTLDLVVIGAYLGRGKRAGRYGGFLLASYDEDSEELQAICKLGTGFSDEELEEHHQSLKALVLPSPRPYVRIDGAVIPDHWLDPSAVWEVKCADLSLSPIYPAARGLVDSDKGISLRFPRFIRVREDKQPEQATTSAQVACLYRKQSQIQNQQGEDSGSDPEDTY
B2: α-TTP I202D; sequence looked up; chain MAEARSQPSAGPQLNALPDHSPLLQPGLAALRRRAREAGVPLAPLPLTDSFLLRFLRARDFDLDLAWRLLKNYYKWRAECPEISADLHPRSIIGLLKAGYHGVLRSRDPTGSKVLIYRIAHWDPKVFTAYDVFRVSLITSELIVQEVETQRNGIKAIFDLEGWQFSHAFQITPSVAKKIAAVLTDSFPLKVRGIHLINEPVDFHAVFSMIKPFLTEKIKERIHMHGNNYKQSLLQHFPDILPLEYGGEEFSMEDICQEWTNFIMKSEDYLSSISESIQ
B3: α-TTP F165D; sequence looked up; chain MAEARSQPSAGPQLNALPDHSPLLQPGLAALRRRAREAGVPLAPLPLTDSFLLRFLRARDFDLDLAWRLLKNYYKWRAECPEISADLHPRSIIGLLKAGYHGVLRSRDPTGSKVLIYRIAHWDPKVFTAYDVFRVSLITSELIVQEVETQRNGIKAIFDLEGWQDSHAFQITPSVAKKIAAVLTDSFPLKVRGIHLINEPVIFHAVFSMIKPFLTEKIKERIHMHGNNYKQSLLQHFPDILPLEYGGEEFSMEDICQEWTNFIMKSEDYLSSISESIQ
B4: α-TTP F169D; sequence looked up; chain MAEARSQPSAGPQLNALPDHSPLLQPGLAALRRRAREAGVPLAPLPLTDSFLLRFLRARDFDLDLAWRLLKNYYKWRAECPEISADLHPRSIIGLLKAGYHGVLRSRDPTGSKVLIYRIAHWDPKVFTAYDVFRVSLITSELIVQEVETQRNGIKAIFDLEGWQFSHADQITPSVAKKIAAVLTDSFPLKVRGIHLINEPVIFHAVFSMIKPFLTEKIKERIHMHGNNYKQSLLQHFPDILPLEYGGEEFSMEDICQEWTNFIMKSEDYLSSISESIQ
Chain of UniProt O54982 (whole entry, looked up): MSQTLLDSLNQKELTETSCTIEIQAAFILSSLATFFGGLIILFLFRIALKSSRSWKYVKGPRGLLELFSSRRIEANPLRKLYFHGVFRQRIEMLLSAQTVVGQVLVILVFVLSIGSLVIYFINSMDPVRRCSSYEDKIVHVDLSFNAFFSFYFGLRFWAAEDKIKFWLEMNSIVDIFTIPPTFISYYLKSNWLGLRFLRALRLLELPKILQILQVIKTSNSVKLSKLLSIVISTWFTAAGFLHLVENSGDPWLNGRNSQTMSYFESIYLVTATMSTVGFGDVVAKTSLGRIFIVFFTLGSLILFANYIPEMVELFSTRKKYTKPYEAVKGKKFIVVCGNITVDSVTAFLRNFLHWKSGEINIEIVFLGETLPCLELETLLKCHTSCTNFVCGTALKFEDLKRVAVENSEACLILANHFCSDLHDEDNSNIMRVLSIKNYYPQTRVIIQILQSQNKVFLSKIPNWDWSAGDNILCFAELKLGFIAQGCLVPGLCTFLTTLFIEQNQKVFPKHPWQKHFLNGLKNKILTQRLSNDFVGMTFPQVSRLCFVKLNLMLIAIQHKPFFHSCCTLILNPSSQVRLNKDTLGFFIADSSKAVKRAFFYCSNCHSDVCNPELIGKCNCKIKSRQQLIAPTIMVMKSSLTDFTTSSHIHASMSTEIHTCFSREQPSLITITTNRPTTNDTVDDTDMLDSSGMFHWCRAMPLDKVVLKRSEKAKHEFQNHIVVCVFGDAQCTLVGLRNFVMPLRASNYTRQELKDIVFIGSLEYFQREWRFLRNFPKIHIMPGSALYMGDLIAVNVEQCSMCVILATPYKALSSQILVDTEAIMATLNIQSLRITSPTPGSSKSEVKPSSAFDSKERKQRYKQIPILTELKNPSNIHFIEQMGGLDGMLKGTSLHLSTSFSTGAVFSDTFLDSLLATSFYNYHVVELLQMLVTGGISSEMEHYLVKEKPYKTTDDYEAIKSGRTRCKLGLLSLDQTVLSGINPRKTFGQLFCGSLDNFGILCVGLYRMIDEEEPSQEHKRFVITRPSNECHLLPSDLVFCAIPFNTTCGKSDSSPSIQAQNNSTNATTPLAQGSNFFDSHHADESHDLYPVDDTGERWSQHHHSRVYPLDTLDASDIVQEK
Chain of UniProt P11607 (whole entry, looked up): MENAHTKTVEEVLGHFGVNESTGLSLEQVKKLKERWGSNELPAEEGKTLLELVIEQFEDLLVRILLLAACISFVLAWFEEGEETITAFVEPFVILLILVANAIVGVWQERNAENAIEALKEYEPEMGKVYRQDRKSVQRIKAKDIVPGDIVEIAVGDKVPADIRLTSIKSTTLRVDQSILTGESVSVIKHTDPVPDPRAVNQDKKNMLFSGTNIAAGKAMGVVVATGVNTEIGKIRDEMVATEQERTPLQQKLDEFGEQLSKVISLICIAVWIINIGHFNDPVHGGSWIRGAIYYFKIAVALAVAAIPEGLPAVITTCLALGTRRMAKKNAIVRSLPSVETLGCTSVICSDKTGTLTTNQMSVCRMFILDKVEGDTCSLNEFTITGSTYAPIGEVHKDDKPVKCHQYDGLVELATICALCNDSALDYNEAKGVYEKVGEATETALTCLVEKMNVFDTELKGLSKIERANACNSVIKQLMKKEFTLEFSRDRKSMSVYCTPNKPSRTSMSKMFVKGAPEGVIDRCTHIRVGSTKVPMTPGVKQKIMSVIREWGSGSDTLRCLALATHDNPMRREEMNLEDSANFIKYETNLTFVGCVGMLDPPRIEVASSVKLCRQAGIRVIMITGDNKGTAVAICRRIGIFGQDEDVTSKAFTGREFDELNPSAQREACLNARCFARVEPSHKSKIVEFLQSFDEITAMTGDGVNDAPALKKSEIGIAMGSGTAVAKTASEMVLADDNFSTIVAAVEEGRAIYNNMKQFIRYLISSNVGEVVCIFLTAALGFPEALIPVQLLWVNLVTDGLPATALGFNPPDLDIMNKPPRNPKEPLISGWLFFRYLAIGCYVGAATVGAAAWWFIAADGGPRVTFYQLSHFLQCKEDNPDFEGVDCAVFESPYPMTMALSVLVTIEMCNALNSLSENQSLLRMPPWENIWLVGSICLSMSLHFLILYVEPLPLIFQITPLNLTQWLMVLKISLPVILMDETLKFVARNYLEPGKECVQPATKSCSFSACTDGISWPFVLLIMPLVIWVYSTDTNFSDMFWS
Chain of UniProt P56450 (whole entry, looked up): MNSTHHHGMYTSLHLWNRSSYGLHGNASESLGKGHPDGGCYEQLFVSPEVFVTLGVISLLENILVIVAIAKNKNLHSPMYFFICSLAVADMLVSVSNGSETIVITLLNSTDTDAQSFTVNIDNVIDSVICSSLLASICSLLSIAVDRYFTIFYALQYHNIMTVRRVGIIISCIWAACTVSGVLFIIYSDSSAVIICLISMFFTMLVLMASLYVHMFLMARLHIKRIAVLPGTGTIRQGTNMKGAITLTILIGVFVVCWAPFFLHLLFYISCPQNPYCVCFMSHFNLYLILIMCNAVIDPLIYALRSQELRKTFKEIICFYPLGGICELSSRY

CCCC[C@H](NC(=O)[C@H](C)NC(=O)[C@H](Cc1ccc(O)cc1)NC(=O)[C@H](CO)NC(C)=O)C(=O)N[C@@H](CCC(=O)O)C(=O)N[C@@H](Cc1c[nH]cn1)C(=O)N[C@H](Cc1ccccc1)C(=O)N[C@@H](CCCNC(=N)N)C(=O)N[C@@H](Cc1c[nH]c2ccccc12)C(=O)NCC(=O)N[C@@H](CCCCN)C(=O)N1CCC[C@H]1C(=O)N[C@H](C(N)=O)C(C)C
EC50 (Melanocortin receptor 4 (Mus musculus, UniProt P56450)): 0.00027 ± 1e-05 µM

B1 (DNA ligase 1)
Kd (DNA binding, fluorescence polarization; nicked dsDNA probe; pH 7.4, 0.1 M NaCl, with: 15 nM fluorescein-labelled DNA probe): 7.7 µM

B2 (α-TTP I202D)
Kd (binding, dual polarization interferometry; immobilized phospholipid bilayer; 20 °C): 2.05 µM

CC[N+](CC)(CC)CC
Kb (Kcnu1, Slo1 N-terminal chimera (Mus musculus, UniProt O54982); ion current, blocker, cytosolic application; pH 8.5, open-channel block, with: Ca2+ 0): 110 ± 10 µM

Nc1ncnc2c1ncn2[C@@H]1O[C@H](COP(=O)(O)OP(=O)(O)OP(=O)(O)OP(=O)(O)OC[C@H]2O[C@@H](n3cnc4c(N)ncnc43)[C@H](O)[C@@H]2O)[C@@H](O)[C@H]1O
EC50 (HEK293T; PGC-1α/ERRα reporter gene, agonist, qHTS luciferase): 13.3 µM

B3 (α-TTP F165D)
Kd (binding, dual polarization interferometry; immobilized phospholipid bilayer; 20 °C): 4.99 ± 1.9 µM

N=C(N)NCCC[C@@H]1NC(=O)[C@H](CCCNC(=N)N)NC(=O)[C@H](CCCNC(=N)N)NC(=O)[C@H](Cc2ccc3ccccc3c2)NC(=O)[C@H](Cc2ccccc2)NC(=O)[C@H](CCC(N)=O)NC(=O)[C@H](CCCNC(=N)N)NC1=O
EC50 (lipid binding, fluorescence polarization; small unilamellar vesicles PC/PE/PI/BMP; 2 h, room temperature, EC50 as lipid concentration): 166 ± 12 µM

CCOC(=O)C1=C(C)NC2=C(C(=O)CC(C)(C)C2)C1c1ccc(-c2ccccc2)cc1 (stereo not shown)
IC50 (HEK293T (HA-TGFBR2-mCherry); total receptor level, degrader, flow cytometry): 1310 nM

CCN(Cc1ccccc1OC)C(=O)c1ccc(F)c(Br)c1
EC50 (ATP2A2 (Sus scrofa, UniProt P11607); Ca2+-ATPase activity, activator; porcine cardiac SR vesicles; maximal Ca2+ activity): 6.1 ± 2.8 µM

COc1cc(/C=C/c2[nH]c(=O)[nH]c(=O)c2[N+](=O)[O-])cc(OC)c1OC
Ki (ribH; enzyme activity, inhibitor; pH 7.0): 17 ± 4 µM

vimentin
Kd (binding, SPR (Biacore); immobilized peptide; rabbit mAb mixture analyte): 0.000306 µM

B4 (α-TTP F169D)
Kd (binding, dual polarization interferometry; immobilized phospholipid bilayer; 20 °C): 5.85 ± 0.54 µM

COc1cccc(/C=C/c2[nH]c(=O)[nH]c(=O)c2[N+](=O)[O-])c1OC
Ki (ribH; enzyme activity, inhibitor; pH 7.0): 9.6 ± 4.5 µM

For quick reference, copied from above:
vimentin
Kd (binding, SPR (Biacore); immobilized peptide; rabbit mAb mixture analyte): 0.000306 µM

B4 (α-TTP F169D)
Kd (binding, dual polarization interferometry; immobilized phospholipid bilayer; 20 °C): 5.85 ± 0.54 µM
